{"data": "Results gathered from unrelated publications", "note": "A part holds a random share of what one study measured."}
{"data": "Block 1", "target": "Histone acetyltransferase KAT6A, winged helix 2, GST fusion (KAT6A, Homo sapiens, UniProt Q92794, residues 85-181)", "method": "protein binding microarray", "form": "double-stranded DNA, one strand shown", "matrix": "in vitro", "tested at": "not given", "setting": "8-mer, flanks averaged, mean of 2 arrays, mostly near background", "baseline": "not given", "reading": "higher = stronger binding", "Residues (chain)": "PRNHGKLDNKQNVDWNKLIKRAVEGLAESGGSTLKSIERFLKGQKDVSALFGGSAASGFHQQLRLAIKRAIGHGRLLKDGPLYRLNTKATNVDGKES"}
{"Strand": "AACGCTTA", "E-score": -0.195}
{"Strand": "GTTGAAAC", "E-score": 0.123}
{"Strand": "ACGCTTTG", "E-score": -0.134}
{"Strand": "ATTACTTG", "E-score": 0.0542}
{"Strand": "CTCGTGAA", "E-score": -0.0487}
{"Strand": "ATCTCATG", "E-score": -0.00732}
{"Strand": "GAATCCAC", "E-score": -0.0561}
{"Strand": "GAAGGTGC", "E-score": -0.0631}
{"Strand": "AAACGTAA", "E-score": -0.126}
{"Strand": "CTGGGAGC", "E-score": 0.0227}
{"Strand": "CATGCTAG", "E-score": -0.116}
{"Strand": "TATTGACA", "E-score": -0.166}
{"Strand": "GGGGAAAC", "E-score": 0.211}
{"Strand": "AACACAAG", "E-score": -0.163}
{"Strand": "CAACATGG", "E-score": 0.0848}
{"Strand": "GCCCACAA", "E-score": 0.195}
{"Strand": "ACTCCAGT", "E-score": -0.131}
{"Strand": "CTTCATGA", "E-score": 0.0975}
{"Strand": "CTCTCGCA", "E-score": -0.0931}
{"Strand": "AATCATCC", "E-score": 0.0168}
{"Strand": "GAAACTCA", "E-score": 0.0582}
{"Strand": "ACGCGCGC", "E-score": 0.268}
{"Strand": "TACGTAAA", "E-score": -0.254}
{"Strand": "ACGGTCTG", "E-score": 0.0242}
{"data": "Block 2", "target": "Fragile X messenger ribonucleoprotein 1, C-terminal low-complexity region (Fmr1, Mus musculus, UniProt P35922)", "method": "RNA Bind-n-Seq", "form": "RNA", "matrix": "in vitro", "tested at": "200 nM", "setting": "whole 134-nt RNA, ends assumed", "with": "150 mM KCl", "baseline": "input library", "reading": "higher = stronger binding", "constant ends, left off below": "GGGAGUUCUACAGUCCGACGAUC … UGGAAUUCUCGGGUGUCAAGG"}
{"Strand": "CUCAAGUCCUGUGCUACACAUCGUAUGUACCGAAUCGGGGCCGGGCCGGGCCGGAAAGUAUUAUGUUACGCCGUUCGGAUCUGCACUUCC", "log2 enrichment": -0.0188}
{"Strand": "UGGCCCUGGUGGCAUGCGGGGAGGAAGAGGUGGCCUCAUGGAUCGUGGUGGUCCCGGUGGAAUGUUCAGAGGGGGCCGUGGUGGAGACAG", "log2 enrichment": -0.23}
{"Strand": "GUCCUGUGCUACACAUCGUAUGUACCGAAUCAAACCCCCCCAAACCCAAAUUUUUAAAAAAGUAUUAUGUUACGCCGUUCGGAUCUGCAC", "log2 enrichment": -0.0528}
{"Strand": "UGGCCCUGGUGGCAUGCGGGGAGGAAGCGGUGGCCUCAUGGAUCGUGGUGGUCCCGGUGGAAUGUUCAGAGGUGGCCGUGGUGGAGACAG", "log2 enrichment": -0.194}
{"Strand": "CACAGACAACACGCACCCACACAGACACAGAGGGAAGGGGUUGGGAUGGGGACAAGGUGCACAGCAGGGCGGGGUAGGACCCCAGCCCCU", "log2 enrichment": 1.26}
{"Strand": "UUCACCAGUUUCACUGUGAGCCUCAACGAGCUGGAGACAGGCAUGGAGAAGACCCUGCCACCCACGGACUGCCGCCUGCGCCCUGACAUC", "log2 enrichment": -0.33}
{"Strand": "UGGCCCUGGUGGCAUGCGGGGAGAAAGAGGUGGCCUCAUGGAUCGUGGUGGUCCCGGUGGAAUGUUCAGAGGUGGCCGUGGUGGAGACAG", "log2 enrichment": 0.0259}
{"Strand": "CACAGACAACACGCACCCACACAGACACAGAGGGAAGGGGUUGGGAUGGGGCCAGGGUGCACAGCAGGGCGGGGUAGGACCCCAGCCCCU", "log2 enrichment": 1.23}
{"Strand": "UCCUGUGCUACACAUCGUAUGUACCGAAUCGGGUUUUUUUGGGAAAAAAAGGGUUUGGGAAAGUAUUAUGUUACGCCGUUCGGAUCUGCA", "log2 enrichment": -0.419}
{"data": "Block 3", "target": "Hepatocyte nuclear factor 3-alpha (Foxa1, Mus musculus, UniProt P35582, residues 1-468, full length assumed)", "method": "EMSA with sequencing", "form": "double-stranded DNA, one strand shown", "matrix": "in vitro", "tested at": "10 and 20 nM", "setting": "whole designed probe, mean of two concentrations, ends assumed", "baseline": "negative control set to 0", "reading": "higher = stronger binding", "constant ends, left off below": "GTGAGCGGTGCCCATTGATGGGGAAC … TTTCACTGGGATCGTGGGGAC", "Residues (chain)": "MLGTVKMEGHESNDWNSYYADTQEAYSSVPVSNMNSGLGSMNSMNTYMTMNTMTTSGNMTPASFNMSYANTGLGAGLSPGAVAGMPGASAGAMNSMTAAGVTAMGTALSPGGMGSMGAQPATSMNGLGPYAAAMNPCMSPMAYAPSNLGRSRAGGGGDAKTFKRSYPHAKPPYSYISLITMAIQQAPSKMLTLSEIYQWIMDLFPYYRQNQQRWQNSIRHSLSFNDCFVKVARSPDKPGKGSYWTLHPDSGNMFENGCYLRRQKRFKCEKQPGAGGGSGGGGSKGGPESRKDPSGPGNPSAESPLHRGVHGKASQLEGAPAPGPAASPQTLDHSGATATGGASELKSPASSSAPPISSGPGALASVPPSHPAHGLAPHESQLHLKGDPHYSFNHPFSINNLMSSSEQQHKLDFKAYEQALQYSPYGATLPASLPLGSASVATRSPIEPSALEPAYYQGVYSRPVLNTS"}
{"Strand": "CTTGGCATGTTATATAACAACTTAACTAACGGCCGCCATGCACGAAAGAGCAAACCGTCCTGTTGCCTAGTGACTATTATCCAAGGCAATCAAAGTAATCTGCAAATGCCACAGATATTTTTGAACAGCTGTTAGATGACCCAGATACAATATTTATATGGCTCGCTAGTTTCTCAGACAGAATTGGACCCTA", "normalised bound fraction": "0.0325 ratio"}
{"Strand": "ATCTTCCCCCTCTTCCTTGCCCCTGACCAGTCCACCTGCTCCGTATTTGCAGATAGGAAAATAAATAAAGCCGGCATTCGTTAACCCTCTTCTGGCGCAAACTGCTGTTTGCTCTGGATGAATCATGGTCCTTTGGCGACGCCAGGCTCCGGGAGAGCAAAGCACCGTGTCAGGGCCATGATCCGGGGTGGCC", "normalised bound fraction": "0.341 ratio"}
{"Strand": "GCCAGGAAATGTAGTTCTTTAGCTGGACCCATTGCTGCTCCCCTCCCACAAATCAGTTTTTGTTAGAAAGAAGGGGAAGTGGATTTGGGGAAAGTAAATACAGCAGCTAAACAGCAAGTACAAATCACACATTCAAAAAGTGTGTCCATAAAGGGAAGGAGAGAGATGAGATGATAGTTGGAAGGGGATGTGG", "normalised bound fraction": "0.274 ratio"}
{"Strand": "TATGTGGGAACTAATTGAGGACCAAGATTACAATGCGTACAAATCATAAATCAATTAGTTCATATTGATTTACAAACAAGGAAGAAAAAGTATTAGATTACATTGATACTGTCCATGTAAACTTTTTTCAATTCAAAAGAAACACATAGTTCTGTCATAAAGTAGATTTTCTATCCCTTTTATTTTCTGAGCT", "normalised bound fraction": "0.133 ratio"}
{"Strand": "TTCACTTTTTTTTCTGCTGTCTTGAACTCCTTTTCCTCACTCTAAATATTTTTTACAGCATTTACTATCTTCTAACATATTATAAAATTTCTTGTTTACTTATATTTATTCTCAATATCCTCCTATTAAGTCAGAGTGTCTGCCCTTGGTATGCATTAATATGTATTTAAGGAATTGATAAATTAGTTCTGCT", "normalised bound fraction": "0.404 ratio"}
{"data": "Block 4", "target": "Interferon regulatory factor 7, full length, phosphomimetic (IRF7, Homo sapiens, UniProt Q92985, residues 1-503, S101K/S471D/S472D/S475D/S476D/S477D/S483D/S484D/S487D)", "method": "protein-binding microarray", "form": "double-stranded DNA, one strand shown", "matrix": "in vitro", "tested at": "250 nM", "setting": "60-bp whole probe", "with": "salmon DNA 0.4 mg/ml", "baseline": "random background probes", "reading": "higher = stronger binding", "constant ends, left off below": "GCCTAGCAC … GTCTTGATTCGCTTGACGCTGCTG", "Residues (chain)": "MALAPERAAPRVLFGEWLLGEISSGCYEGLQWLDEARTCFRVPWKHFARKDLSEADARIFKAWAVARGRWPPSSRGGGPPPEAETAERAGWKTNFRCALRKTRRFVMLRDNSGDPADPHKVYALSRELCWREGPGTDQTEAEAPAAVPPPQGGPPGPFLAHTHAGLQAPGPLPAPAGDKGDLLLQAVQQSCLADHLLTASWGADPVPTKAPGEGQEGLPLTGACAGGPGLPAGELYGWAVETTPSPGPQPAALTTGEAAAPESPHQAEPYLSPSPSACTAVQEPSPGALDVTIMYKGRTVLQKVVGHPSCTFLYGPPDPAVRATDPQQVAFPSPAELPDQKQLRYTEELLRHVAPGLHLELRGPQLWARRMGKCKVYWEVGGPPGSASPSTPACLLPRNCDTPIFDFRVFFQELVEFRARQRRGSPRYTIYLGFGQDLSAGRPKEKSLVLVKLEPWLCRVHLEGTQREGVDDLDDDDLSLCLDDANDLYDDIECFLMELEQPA"}
{"Strand": "TTGTGTTGCTGTTTGAGGAAGTGCTAG", "log fluorescence": "0.293 z-score"}
{"Strand": "AGCCGTCTCCACCTGGGCAAGTGCTAG", "log fluorescence": "-0.999 z-score"}
{"Strand": "TCATCCCTAATTCTGATACTGTGCTAG", "log fluorescence": "1.19 z-score"}
{"Strand": "AGGTTCTACTCCGTTAGTTGGTGCTAG", "log fluorescence": "0.599 z-score"}
{"Strand": "TTAGGTTTAGGTTCCGGTTAGTGCTAG", "log fluorescence": "2.42 z-score"}
{"Strand": "TCAGGCCTCTTGCTCAGACTGTGCTAG", "log fluorescence": "-0.58 z-score"}
{"Strand": "GACGGTCGCGGACTGGGGACGTGCTAG", "log fluorescence": "-0.48 z-score"}
{"Strand": "GTGATTTCAGTTTTCTTTTCGTGCTAG", "log fluorescence": "3.11 z-score"}
{"Strand": "GACGAACTGAGTATCGAGTCGTGCTAG", "log fluorescence": "0.509 z-score"}
{"Strand": "TCACATCTGCAACATCTAACTGTGCTA", "log fluorescence": "0.128 z-score"}
{"Strand": "GACGGTATCGGGTTTCGGCACGTGCTA", "log fluorescence": "1.8 z-score"}
{"Strand": "GACGGACCGGGGACTGGGGACGTGCTA", "log fluorescence": "-0.557 z-score"}
{"Strand": "ATGAGACTGTCACATCCCTGGTGCTAG", "log fluorescence": "-0.303 z-score"}
{"Strand": "TTAGAACTGAGTAGCGATTAGTGCTAG", "log fluorescence": "-0.0522 z-score"}
{"Strand": "GACGGTTTCGGTTCCTGGACGTGCTAG", "log fluorescence": "12.3 z-score"}
{"Strand": "GACGAGATCGGGTATCGAGACGTGCTA", "log fluorescence": "0.181 z-score"}
{"Strand": "GACGGACTGCTACAGCTGACGTGCTAG", "log fluorescence": "-0.815 z-score"}
{"Strand": "GACAGACTGGGGTATCGGGACGTGCTA", "log fluorescence": "-0.79 z-score"}
{"Strand": "TCACATATACACATCTTACTGTGCTAG", "log fluorescence": "0.928 z-score"}
{"note": "Excerpt of the above (block 1):"}
{"Strand": "ACGGTCTG", "E-score": 0.0242}
{"Strand": "ACGCTTTG", "E-score": -0.134}
{"Strand": "CAACATGG", "E-score": 0.0848}
{"Strand": "CTCTCGCA", "E-score": -0.0931}
{"Strand": "AACACAAG", "E-score": -0.163}
{"Strand": "AACGCTTA", "E-score": -0.195}
